Measured values collected from several papers.
Each line is one published result; not all experiments were run side by side.
Target: Serine/threonine-protein kinase 32C (STK32C, Homo sapiens, UniProt Q86UX6)

With `CN1CCN(Cc2ccc(NC(=O)c3cccc(C#Cc4cnc(N)c5ncccc45)c3)cc2C(F)(F)F)CC1` the remaining binding was 67% (cell-free assay, competition with immobilised ligand; 50 nM).
For `Cc1ccc(-c2c(/C=C(\C#N)C(=O)NC(C)C)n(CCCO)c3ncnc(N)c23)cc1`, the remaining binding was 100% (cell-free assay, competition with immobilised ligand; 1 µM).
The remaining binding of `CCN1CCN(Cc2ccc(C(=O)Nc3ccc(C)c(NCc4cnc5[nH]ccc5c4OC)c3)cc2C(F)(F)F)CC1` is reported as 89% (binding, competition with immobilised ligand; 1 µM).
`CC(C)=CC1OC(C)(C)C2C=C3C(=O)C(Cl)=CC(O)C3C3C(O)C4OC4C(=O)C132` (centres unmarked) has a remaining binding of 100% (cell-free assay, competition with immobilised ligand; 10 µM).
For `CC(=O)N1c2ccc(-c3ccc(CNC(=O)c4cn5cc(-c6cnc(N)nc6)nc(N6CCOCC6)c5n4)cc3)cc2CC[C@@H]1C`, the remaining binding was 75% (binding, competition with immobilised ligand; 10 µM).
`CNC(=O)C[C@H](Cc1ccc(C#N)cc1)NC(=O)c1cc(-c2ccc(CN[C@H](C)c3ccc(C)cc3)o2)ccc1Cl`: “activity vs control” 101% (enzyme activity, inhibitor; 1 µM).
`COc1cc(Nc2nc(C)cc(-c3cnn4nc(OC)ccc34)n2)cc(C(F)(F)F)c1` gave a remaining binding of 87% (binding, competition with immobilised ligand; 1 µM).
For `C=C1CCCCCCCCCC(CO)C1=O` (centres unmarked), the remaining binding was 98% (cell-free assay, competition with immobilised ligand; 10 µM).
`CCN1CCN(Cc2ccc(NC(=O)c3ccc(C)c(NC(=O)c4cncc(-c5cnn(C)c5)c4)c3)cc2C(F)(F)F)CC1` has a remaining binding of 90% (binding, competition with immobilised ligand; 1 µM).
`COc1ccc(NC(=O)Nc2ccc3c(c2)C(=O)N(C(C)CO)CC(C)C(CN(C)Cc2ccc4c(c2)OCO4)O3)cc1` (centres unmarked) has a remaining binding of 91% (binding, competition with immobilised ligand; 10 µM).
The remaining binding of `COc1c(Cl)cccc1Nc1c(-c2ccncc2C#C[C@@]2(C)CCCN2C(=O)/C=C/CN(C)C)[nH]c2c1C(=O)NCC2` is reported as 67% (binding, competition with immobilised ligand; 3 µM).
With `Nc1ncc2c(n1)-c1c([nH]c3ccc(C4=CCOCC4)cc13)CCC2` the remaining binding was 98% (binding, competition with immobilised ligand; 1 µM).
For `NC(=O)[C@@H](O)C[C@H]1CCc2sc3ncnc(O[C@H]4CC[C@H](N5CCOCC5)CC4)c3c21`, the inhibition was -12% (enzyme activity, inhibitor; 10 µM).
With `C=CC(=O)N1Cc2nc(-c3cc(-c4cc(Cl)cnc4Cl)c(F)cc3F)n(-c3ccncn3)c2C1` the inhibition was 5.6% (cell-free assay, inhibitor; 1 µM).

Repeated from above:
`CNC(=O)C[C@H](Cc1ccc(C#N)cc1)NC(=O)c1cc(-c2ccc(CN[C@H](C)c3ccc(C)cc3)o2)ccc1Cl`: “activity vs control” 101% (enzyme activity, inhibitor; 1 µM).
